Assay results of several laboratories.
Lines come from different studies, so protocols differ.
Target: Rhodopsin kinase GRK7 (GRK7, Homo sapiens, UniProt Q8WTQ7)
One construct used (Q8WTQ7 1-553): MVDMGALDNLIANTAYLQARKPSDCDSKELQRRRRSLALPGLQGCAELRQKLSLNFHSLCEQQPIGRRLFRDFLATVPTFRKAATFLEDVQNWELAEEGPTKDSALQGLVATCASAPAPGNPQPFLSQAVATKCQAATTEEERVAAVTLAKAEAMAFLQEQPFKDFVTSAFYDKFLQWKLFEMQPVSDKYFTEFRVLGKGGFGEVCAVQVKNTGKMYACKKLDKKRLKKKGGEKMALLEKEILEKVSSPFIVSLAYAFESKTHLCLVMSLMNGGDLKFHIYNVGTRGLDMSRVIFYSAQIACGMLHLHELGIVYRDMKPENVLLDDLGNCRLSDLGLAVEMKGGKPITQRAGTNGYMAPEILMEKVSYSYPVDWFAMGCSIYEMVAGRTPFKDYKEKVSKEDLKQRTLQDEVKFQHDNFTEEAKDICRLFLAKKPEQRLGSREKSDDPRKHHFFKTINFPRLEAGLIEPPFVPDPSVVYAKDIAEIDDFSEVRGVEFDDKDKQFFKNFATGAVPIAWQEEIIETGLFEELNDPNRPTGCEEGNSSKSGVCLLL

| Structure (SMILES) | test | setting | scale | measurement | value |
| --- | --- | --- | --- | --- | --- |
| CCN1CCN(Cc2ccc(C(=O)Nc3ccc(C)c(NCc4cnc5[nH]ccc5c4OC)c3)cc2C(F)(F)F)CC1 | binding, competition with immobilised ligand | 1 µM |  | remaining binding | 98% |
| Nc1ncc(-c2cc(-c3cnn(CC(F)(F)F)c3)ncc2F)nc1C(=O)NC1CNCC(F)C1 (centres unmarked) | enzyme activity | 1 µM | baseline: DMSO control | remaining activity | 78% |
| Cc1c[nH]c2nccc(-c3ccc(C(=O)N[C@@H]4c5c(F)cc(C(F)F)cc5C[C@@H]4O)cn3)c12 | binding, competition with immobilised ligand | 3 µM |  | remaining binding | 3.9% |
| Cc1cnc2nc1Nc1cccc(c1)COC/C=C/COCc1cc(ccc1OCCN1CCOCC1)N2 | binding | 0.1 µM |  | remaining binding | 87% |
| CCn1cc(C(=O)O)c(=O)c2c(N)c(F)c(NC3CCCCC3)cc21 | kinase activity | 0.1 µM, with: ATP at Km |  | inhibition | 36.5% |
| COc1cc(Nc2nccc(-c3cnn4nc(OC)ccc34)n2)cc(C(F)(F)F)c1 | binding, competition with immobilised ligand | 1 µM |  | remaining binding | 67% |
| Cc1cccc(O[C@H]2CCC[C@@H](C(C)CNCc3ccncc3)C2)c1 (relative stereo) | enzyme activity, inhibitor | 1 µM |  | inhibition | 7% |
| CNC1C[S+]2CC[S+]3CC[S+](C1)[Ru-4]321([N]=C=S)[n]2c3ccc(OC)cc3c3c4c(c5cc(F)c[n+]1c5c32)C(=O)NC4=O (centres unmarked) | KinomeScan | 0.1 µM | baseline: untreated | remaining binding | 8.4% |
| C=CC(=O)N1CCCC(n2c(=O)c3ncccc3n(Cc3ccc(Oc4ccccc4)cc3)c2=O)C1 (centres unmarked) | cell-free assay, competition with immobilised ligand | 1 µM |  | remaining binding | 100% |
| Cc1nc2c(F)cc(-c3nc(Nc4ccc(CNC(=O)CCCCCCC(=O)NO)cc4)ncc3F)cc2n1C(C)C | enzyme activity, inhibitor | 1 µM |  | inhibition | 19% |
| CNC(=O)C1CCN(c2cc(C)c(F)cc2NC(=O)c2ccc(-c3cc(O)ccc3C)c(C)c2)CC1 | binding, competition with immobilised ligand | 1 µM |  | remaining binding | 100% |
| Cc1ccc(-c2c(/C=C(\C#N)C(=O)NC(C)C)n(CCCO)c3ncnc(N)c23)cc1 | cell-free assay, competition with immobilised ligand | 1 µM |  | remaining binding | 100% |
| CC(C)=CC1OC(C)(C)C2C=C3C(=O)C(Cl)=CC(O)C3C3C(O)C4OC4C(=O)C132 (centres unmarked) | cell-free assay, competition with immobilised ligand | 10 µM |  | remaining binding | 82% |
| NC(=O)[C@@H](O)C[C@H]1CCc2sc3ncnc(O[C@H]4CC[C@H](N5CCOCC5)CC4)c3c21 | enzyme activity, inhibitor | 10 µM |  | inhibition | 4% |

Excerpt of the above:
| Structure (SMILES) | test | setting | scale | measurement | value |
| --- | --- | --- | --- | --- | --- |
| CCn1cc(C(=O)O)c(=O)c2c(N)c(F)c(NC3CCCCC3)cc21 | kinase activity | 0.1 µM, with: ATP at Km |  | inhibition | 36.5% |
| Nc1ncc(-c2cc(-c3cnn(CC(F)(F)F)c3)ncc2F)nc1C(=O)NC1CNCC(F)C1 (centres unmarked) | enzyme activity | 1 µM | baseline: DMSO control | remaining activity | 78% |
